Assay results gathered from unrelated publications.
Numbered parts are unrelated; each lists some results of a single study.
Chain of UniProt P00519 (whole entry, looked up): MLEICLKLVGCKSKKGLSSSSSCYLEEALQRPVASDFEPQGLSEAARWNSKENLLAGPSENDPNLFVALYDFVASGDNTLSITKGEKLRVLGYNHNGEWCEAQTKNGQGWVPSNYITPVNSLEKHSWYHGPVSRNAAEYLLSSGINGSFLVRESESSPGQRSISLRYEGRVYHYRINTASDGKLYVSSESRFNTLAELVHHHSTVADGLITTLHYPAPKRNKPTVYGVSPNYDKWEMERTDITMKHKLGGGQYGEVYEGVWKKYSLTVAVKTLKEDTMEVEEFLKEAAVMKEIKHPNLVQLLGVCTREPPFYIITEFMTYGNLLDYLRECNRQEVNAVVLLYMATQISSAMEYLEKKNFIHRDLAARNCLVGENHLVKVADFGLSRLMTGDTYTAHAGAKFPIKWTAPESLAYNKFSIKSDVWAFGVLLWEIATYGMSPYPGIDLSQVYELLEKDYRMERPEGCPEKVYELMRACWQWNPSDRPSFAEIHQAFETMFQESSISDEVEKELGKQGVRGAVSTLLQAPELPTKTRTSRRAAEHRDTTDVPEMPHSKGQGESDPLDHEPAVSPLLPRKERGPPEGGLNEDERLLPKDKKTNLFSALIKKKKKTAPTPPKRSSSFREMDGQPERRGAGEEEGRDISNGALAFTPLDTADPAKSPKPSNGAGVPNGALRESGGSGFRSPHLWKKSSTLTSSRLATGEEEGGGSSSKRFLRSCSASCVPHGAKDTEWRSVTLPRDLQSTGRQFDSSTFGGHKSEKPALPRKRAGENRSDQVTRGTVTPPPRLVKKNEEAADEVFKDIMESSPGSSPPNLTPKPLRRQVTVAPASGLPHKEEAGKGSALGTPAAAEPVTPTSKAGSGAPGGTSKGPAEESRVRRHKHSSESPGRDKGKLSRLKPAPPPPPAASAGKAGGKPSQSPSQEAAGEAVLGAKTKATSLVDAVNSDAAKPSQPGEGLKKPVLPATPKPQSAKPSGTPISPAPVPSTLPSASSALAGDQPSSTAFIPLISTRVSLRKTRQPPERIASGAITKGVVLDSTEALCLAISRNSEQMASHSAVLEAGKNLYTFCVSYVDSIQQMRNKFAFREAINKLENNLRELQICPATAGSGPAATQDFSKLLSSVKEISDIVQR
Chain of UniProt O43781 (whole entry, looked up): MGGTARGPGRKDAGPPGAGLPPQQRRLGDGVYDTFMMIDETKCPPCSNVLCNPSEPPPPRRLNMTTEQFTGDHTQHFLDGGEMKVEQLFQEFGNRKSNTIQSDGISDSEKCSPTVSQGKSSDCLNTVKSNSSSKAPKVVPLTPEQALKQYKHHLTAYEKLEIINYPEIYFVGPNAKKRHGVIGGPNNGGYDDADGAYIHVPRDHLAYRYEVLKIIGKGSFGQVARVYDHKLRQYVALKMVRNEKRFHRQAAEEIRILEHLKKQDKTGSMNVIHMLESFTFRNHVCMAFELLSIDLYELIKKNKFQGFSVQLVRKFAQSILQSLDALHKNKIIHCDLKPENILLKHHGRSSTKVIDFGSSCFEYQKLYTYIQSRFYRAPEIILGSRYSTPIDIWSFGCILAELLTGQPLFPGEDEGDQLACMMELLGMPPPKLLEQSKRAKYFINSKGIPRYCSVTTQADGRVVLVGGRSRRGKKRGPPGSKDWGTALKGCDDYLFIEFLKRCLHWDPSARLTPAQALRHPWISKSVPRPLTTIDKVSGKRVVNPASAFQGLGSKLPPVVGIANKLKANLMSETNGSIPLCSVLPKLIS
Chain of UniProt P51817 (whole entry, looked up): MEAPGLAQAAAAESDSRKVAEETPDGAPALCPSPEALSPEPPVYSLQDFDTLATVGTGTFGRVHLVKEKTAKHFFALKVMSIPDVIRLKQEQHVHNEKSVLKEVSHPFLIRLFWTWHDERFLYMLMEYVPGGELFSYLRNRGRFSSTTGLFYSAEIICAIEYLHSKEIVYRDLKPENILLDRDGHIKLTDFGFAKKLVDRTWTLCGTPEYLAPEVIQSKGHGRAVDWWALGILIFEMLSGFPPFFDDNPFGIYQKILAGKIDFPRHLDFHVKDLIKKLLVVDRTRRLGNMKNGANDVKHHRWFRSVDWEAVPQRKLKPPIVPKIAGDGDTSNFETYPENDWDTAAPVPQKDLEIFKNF
Chain of UniProt Q8IW41 (whole entry, looked up): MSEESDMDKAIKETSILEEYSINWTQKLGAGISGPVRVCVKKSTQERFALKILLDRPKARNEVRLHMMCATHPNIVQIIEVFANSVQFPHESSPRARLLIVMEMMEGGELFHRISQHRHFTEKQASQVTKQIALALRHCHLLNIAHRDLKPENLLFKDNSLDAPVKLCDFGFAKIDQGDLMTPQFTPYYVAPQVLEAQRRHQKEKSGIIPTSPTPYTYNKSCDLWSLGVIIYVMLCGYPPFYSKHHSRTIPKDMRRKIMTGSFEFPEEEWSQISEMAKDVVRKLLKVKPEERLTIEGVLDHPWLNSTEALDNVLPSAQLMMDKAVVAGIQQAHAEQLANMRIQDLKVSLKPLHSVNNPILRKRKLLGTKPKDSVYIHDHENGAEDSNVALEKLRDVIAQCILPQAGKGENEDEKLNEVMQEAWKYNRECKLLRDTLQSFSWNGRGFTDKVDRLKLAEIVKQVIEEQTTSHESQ
Chain of UniProt P06493 (whole entry, looked up): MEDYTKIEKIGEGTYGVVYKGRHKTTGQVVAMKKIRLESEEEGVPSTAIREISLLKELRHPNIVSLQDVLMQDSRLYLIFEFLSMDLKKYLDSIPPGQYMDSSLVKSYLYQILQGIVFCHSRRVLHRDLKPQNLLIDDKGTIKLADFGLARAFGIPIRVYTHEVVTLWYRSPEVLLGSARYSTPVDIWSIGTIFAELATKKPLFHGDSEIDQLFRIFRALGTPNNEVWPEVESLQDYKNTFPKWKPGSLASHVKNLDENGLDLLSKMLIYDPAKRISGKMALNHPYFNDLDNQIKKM
Chain of UniProt Q9H2X6 (whole entry, looked up): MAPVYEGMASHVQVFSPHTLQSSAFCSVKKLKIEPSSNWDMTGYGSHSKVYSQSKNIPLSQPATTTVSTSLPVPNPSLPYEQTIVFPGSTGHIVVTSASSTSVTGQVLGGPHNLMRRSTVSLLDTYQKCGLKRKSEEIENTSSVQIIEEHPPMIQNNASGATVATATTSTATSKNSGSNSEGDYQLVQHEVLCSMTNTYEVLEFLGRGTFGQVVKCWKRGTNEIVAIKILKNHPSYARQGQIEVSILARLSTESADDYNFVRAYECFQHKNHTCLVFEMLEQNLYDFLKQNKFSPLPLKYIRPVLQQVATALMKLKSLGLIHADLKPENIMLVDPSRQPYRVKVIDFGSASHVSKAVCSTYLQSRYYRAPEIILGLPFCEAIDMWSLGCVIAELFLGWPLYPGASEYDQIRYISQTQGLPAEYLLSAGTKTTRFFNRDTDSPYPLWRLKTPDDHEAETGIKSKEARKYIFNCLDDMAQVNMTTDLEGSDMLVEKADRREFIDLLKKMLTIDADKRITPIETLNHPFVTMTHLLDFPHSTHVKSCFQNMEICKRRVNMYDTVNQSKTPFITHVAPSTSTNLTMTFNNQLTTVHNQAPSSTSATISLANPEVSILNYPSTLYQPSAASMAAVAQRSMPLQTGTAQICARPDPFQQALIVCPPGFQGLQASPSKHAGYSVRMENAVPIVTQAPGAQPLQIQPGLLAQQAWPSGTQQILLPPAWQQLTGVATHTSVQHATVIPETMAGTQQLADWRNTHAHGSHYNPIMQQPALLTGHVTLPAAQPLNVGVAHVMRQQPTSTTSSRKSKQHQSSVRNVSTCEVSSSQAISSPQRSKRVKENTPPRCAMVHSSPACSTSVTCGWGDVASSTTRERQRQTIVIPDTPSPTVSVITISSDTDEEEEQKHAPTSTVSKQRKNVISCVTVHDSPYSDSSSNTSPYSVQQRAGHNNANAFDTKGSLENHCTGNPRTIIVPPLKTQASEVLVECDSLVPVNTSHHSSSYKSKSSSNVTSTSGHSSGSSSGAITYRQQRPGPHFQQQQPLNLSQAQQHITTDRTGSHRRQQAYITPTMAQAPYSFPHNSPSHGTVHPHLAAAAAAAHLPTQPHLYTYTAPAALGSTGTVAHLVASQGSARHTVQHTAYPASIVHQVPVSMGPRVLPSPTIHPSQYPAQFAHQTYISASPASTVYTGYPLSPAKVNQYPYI
Chain of UniProt P51451 (whole entry, looked up): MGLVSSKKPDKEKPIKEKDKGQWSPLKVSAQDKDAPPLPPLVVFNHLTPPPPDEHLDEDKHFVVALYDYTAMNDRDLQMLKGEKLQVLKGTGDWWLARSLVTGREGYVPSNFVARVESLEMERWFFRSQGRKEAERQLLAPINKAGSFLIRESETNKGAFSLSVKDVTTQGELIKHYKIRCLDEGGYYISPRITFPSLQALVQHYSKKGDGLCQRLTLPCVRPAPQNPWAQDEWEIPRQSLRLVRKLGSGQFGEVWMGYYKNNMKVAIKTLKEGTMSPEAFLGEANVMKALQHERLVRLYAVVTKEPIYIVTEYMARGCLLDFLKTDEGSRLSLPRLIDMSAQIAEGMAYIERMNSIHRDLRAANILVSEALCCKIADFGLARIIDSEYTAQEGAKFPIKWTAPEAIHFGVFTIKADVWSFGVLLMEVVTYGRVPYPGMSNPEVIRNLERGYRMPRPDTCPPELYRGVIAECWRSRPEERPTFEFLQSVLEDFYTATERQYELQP

Series 1
SMILES: O=C(CCCc1ccc(-c2ccccc2F)cc1)Nc1ccc(O)cc1
Read-out: enzyme activity
Mode: inhibitor
Concentration: 0.5 µM
Relative to: control
The remaining activity was 101% (BLK (Homo sapiens, UniProt P51451)).
The remaining activity was 94.5% (DYRK3 (Homo sapiens, UniProt O43781)).
For Cyclin-dependent kinase 1, with cyclin B (CDK1, Homo sapiens, UniProt P06493): remaining activity read 102%.
It gave 112% for remaining activity (HIPK2 (Homo sapiens, UniProt Q9H2X6)).
The remaining activity was 106% (EPHB4 (Homo sapiens, UniProt P54760)).
It gave 109% for remaining activity (WNK3 (Homo sapiens, UniProt Q9BYP7)).
For STK16 (Homo sapiens, UniProt O75716): remaining activity read 111%.
The remaining activity was 115% (TSSK2 (Homo sapiens, UniProt Q96PF2)).
The remaining activity was 96.4% (EPHB1 (Homo sapiens, UniProt P54762)).
ABL1 (Homo sapiens, UniProt P00519) — remaining activity: 101%.
For CAMK2B (Homo sapiens, UniProt Q13554): remaining activity read 99.9%.
It gave 99.2% for remaining activity (EPHA4 (Homo sapiens, UniProt P54764)).
It gave 105% for remaining activity (RPS6KA6 (Homo sapiens, UniProt Q9UK32)).

Series 2
Host: mouse
Matrix: microsomes or S9
Concentration: 2 µM
Time: 0.5 h
`CC(Cc1ccccc1)NC(=O)C1CCCNC1=O` (stereo not shown) gave a remaining compound of 85%.
The remaining compound of `Cc1n[nH]c(=O)c(C(=O)NC2CCc3nc(C(C)(C)C)cn3C2)c1C` (stereo not shown) is reported as 94.8%.
`c1ccc(-c2cc(CNCC3COCCO3)c3nnnn3c2)cc1` (stereo not shown) has a remaining compound of 69.1%.
With `c1ccc2c(-c3noc4c3CNCC4)cccc2c1` the remaining compound was 4.91%.
The remaining compound of `O=S1(=O)CCN2N=C(c3ccccc3)C(c3ccccc3)=NC2=N1` is reported as 88.1%.

Series 3
Compound: Cc1c(NC(=O)c2cc(C(N)=O)nc3cc(F)ccc23)c(C(F)(F)F)nn1Cc1ccc(C#N)cc1
Read-out: cell-free assay
Method: competition with immobilised ligand
Concentration: 1 µM
The remaining binding was 74% (PRKG2 (Homo sapiens, UniProt Q13237)).
PRKX (Homo sapiens, UniProt P51817) — remaining binding: 92%.
For FLT3 (Homo sapiens, UniProt P36888, ITD): remaining binding read 95%.
The remaining binding was 99% (PIK3C3 (Homo sapiens, UniProt Q8NEB9)).
Macrophage colony-stimulating factor 1 receptor, autoinhibited (CSF1R, Homo sapiens, UniProt P07333) — remaining binding: 100%.
For Tyrosine-protein kinase ABL1, phosphorylated (ABL1, Homo sapiens, UniProt P00519): remaining binding read 78%.
The remaining binding was 84% (MAPKAPK5 (Homo sapiens, UniProt Q8IW41)).

Series 4
Target: Beta-1 adrenergic receptor (ADRB1, Homo sapiens, UniProt P08588)
Chain of UniProt P08588 (whole entry, looked up): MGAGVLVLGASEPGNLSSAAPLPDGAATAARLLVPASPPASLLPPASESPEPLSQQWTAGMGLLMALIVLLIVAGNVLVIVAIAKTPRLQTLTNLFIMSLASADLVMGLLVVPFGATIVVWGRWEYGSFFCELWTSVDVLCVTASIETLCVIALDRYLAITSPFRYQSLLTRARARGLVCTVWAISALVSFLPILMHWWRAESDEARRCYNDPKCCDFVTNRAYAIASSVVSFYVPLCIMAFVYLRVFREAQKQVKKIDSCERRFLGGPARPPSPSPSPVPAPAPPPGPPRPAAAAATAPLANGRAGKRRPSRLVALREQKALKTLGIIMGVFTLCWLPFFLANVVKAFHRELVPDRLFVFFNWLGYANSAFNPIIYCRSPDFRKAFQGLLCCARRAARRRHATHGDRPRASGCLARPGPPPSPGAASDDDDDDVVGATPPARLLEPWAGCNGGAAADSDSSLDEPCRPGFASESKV
Mode: agonist
For `N#Cc1ccc(OCC(O)CN2CCN(c3ncnc4ccsc34)CC2)cc1` (stereo not shown), the EC50 was ≥ 100 µM.
The EC50 of `Cc1cn([C@@H]2O[C@H](CO)[C@@H](O)[C@H]2O)c(=O)[nH]c1=O` is reported as ≥ 100 µM.
For `OC(c1ccccc1)c1cn(C2CCN(Cc3cnc4ccccc4c3)CC2)nn1` (stereo not shown), the EC50 was ≥ 100 µM.
`Cc1noc2c(-c3cccnc3N3CC(O)C3)cc(-c3ccccc3)nc12` has an EC50 of ≥ 100 µM.
`CC1(C)Cc2c(c(N3CCOCC3)nc3sc(C(=O)Nc4cccc(Cl)c4)c(N)c23)CO1` gave an EC50 of ≥ 100 µM.
`CC#CCn1cc2c3c(cccc31)[C@H](CC(C)C)N[C@H](C(=O)NCCNC(C)=O)C2` gave an EC50 of ≥ 100 µM.

Some of these lines once more (series 1):
It gave 105% for remaining activity (RPS6KA6 (Homo sapiens, UniProt Q9UK32)).
For STK16 (Homo sapiens, UniProt O75716): remaining activity read 111%.
It gave 99.2% for remaining activity (EPHA4 (Homo sapiens, UniProt P54764)).
